# Measurements gathered from unrelated publications.
# Each line is one published result; not all experiments were run side by side. ± gives the spread as reported.
SMILES,host,sample,route,dose,notes,reference,oral bioavailability
CCOCC(=O)N1CCC[C@H](C(=O)NCc2nc(-c3ccc(C)nc3)cs2)C1,"Sprague-Dawley rat, male",plasma,oral,3 mg/kg,,,63%
[2H]c1cc(C)c(NC(=O)c2cnc(Nc3cc(N4CCC(O)CC4)nc(C)n3)s2)c(Cl)c1,Sprague-Dawley rats male,plasma,oral,5 mg/kg,IV 1 mg/kg,,18.3%
COc1ccc2c(=O)n(C)c(-c3ccccc3)nc2c1,"Sprague-Dawley rat, male",,oral,10 mg/kg,,IV 2 mg/kg,9.03 ± 2.66%
O=C1NC(=O)[C@](CNC(=O)c2ccccc2-c2ccc(C(F)(F)F)cc2)(C2CC2)N1,rat Wistar male,,oral,,,,86%
COc1cc(-c2cc(C(C)=O)n3ccccc23)c(OC)cc1Cn1ccnc1,"Sprague-Dawley rat, male",plasma,oral,5 mg/kg,,,50.3%
O=C1c2ccncc2C(=O)c2c1[nH]c1ccccc21,"Sprague-Dawley rat, female",plasma,oral,1 mg/kg,,intravenous AUC(0-t),12.6%
COCC(=O)N1CCC[C@H](C(=O)NCc2nc(-c3ccc(C#N)cc3)cs2)C1,"Sprague-Dawley rat, male",plasma,oral,3 mg/kg,,,54%
N=C(N)NCCNC(=O)C1(Nc2ccccc2)CCN(Cc2ccccc2)CC1,female Sprague-Dawley rats,plasma,,50 and 2.5 mg/kg,,,1.9 ± 0.4%
Cc1nc(Nc2ncc(C(=O)Nc3c(C)cccc3Cl)s2)cc(N2CC[C@H](N)C2)n1,Sprague-Dawley rats male,plasma,oral,5 mg/kg,IV 1 mg/kg,,< 1%
NCCOCC(=O)N1CCC[C@H](C(=O)NCc2nc(-c3ccc(C(F)(F)F)cc3)cs2)C1,"Sprague-Dawley rat, male",plasma,oral,3 mg/kg,,,1.1%
CNC(=O)c1cccc(-c2ccc([C@@H](O)[C@H]3O[C@H](CO)[C@@H](O)[C@H](O)[C@@H]3O)c(C)c2)c1,male Sprague-Dawley rat,plasma,oral,10 mg/kg,unit not given,IV 3 mg/kg,0.0195
CCOC(=O)[C@@]12C[C@@H]1[C@@H](n1ccc3c(NC)nc(C#Cc4ccc(Cl)s4)nc31)[C@H](O)[C@@H]2O,"Sprague-Dawley rat, male",plasma,oral,10 mg/kg,,,59.6%
COc1ccc2c(Cc3ccccc3F)c3n(c(=O)c2c1OC)CCc1cc2c(cc1-3)OCO2,rat,plasma,oral,5 mg/kg,,,15.2%
Cn1nc2c(=O)n(C3CC3)ccc2c1[C@](O)(c1ccc(C(F)(F)F)nc1)C1CC1,"Sprague-Dawley rat, male",,oral,3 mg/kg,,IV 1 mg/kg,~35%
CC(C)(N)COCC(=O)N1CCC[C@H](C(=O)NCc2nc(-c3ccc(C(F)(F)F)cc3)cs2)C1,"Sprague-Dawley rat, male",plasma,oral,3 mg/kg,,,1.3%

# For quick reference, copied from above:
SMILES,host,sample,route,dose,notes,reference,oral bioavailability
CC(C)(N)COCC(=O)N1CCC[C@H](C(=O)NCc2nc(-c3ccc(C(F)(F)F)cc3)cs2)C1,"Sprague-Dawley rat, male",plasma,oral,3 mg/kg,,,1.3%
